# Published values of several laboratories.
# ± gives the spread as reported.
# CatSper channel complex: CatSper channel complex (Homo sapiens, UniProt Q7RTX7+Q86XQ3+Q8NEC5+Q96P56)
# EPHX2: Bifunctional epoxide hydrolase 2 (EPHX2, Homo sapiens, UniProt P34913)
Compound,target,assay,system,conditions,IC50 [µM]
O=C(NC(=S)Nc1nc(-c2ccccc2)cc(-c2ccc(Cl)cc2)n1)c1cccc2ccccc12,"Proteinase K (PROK, Engyodontium album, UniProt P06873)",inhibitor,,,1.82 ± 0.087
C[C@@H]1CCN(c2nc3cc(Cl)ccc3o2)CCN1S(=O)(=O)c1ccc(C(C)(C)C)cc1,"HCRTR2 (Homo sapiens, UniProt O43614)","calcium signal, antagonist, fluorescence",,,1.15
N#Cc1c(F)c(F)c2nc(SCc3ccccc3)nc(N)c2c1F,"CDC25B (Homo sapiens, UniProt P30305)","enzyme activity, inhibitor, fluorescence",,,3.9
C=C(NC(=O)C(=C)NC(=O)c1csc(C2=NC3c4csc(n4)C4NC(=O)c5csc(n5)C(C(C)(O)C(C)O)NC(=O)C5CSC(=N5)C(=CC)NC(=O)C(C)NC(=O)c5csc(n5)C3(CC2)NC(=O)C(C)NC(=O)C(=C)NC(=O)C(C)NC(=O)C(C(C)CC)NC2C=Cc3c(C(C)O)cc(nc3C2O)C(=O)OC4C)n1)C(N)=O (centres unmarked),"PSMB6 (Homo sapiens, UniProt P28072)","caspase-like activity, inhibitor",purified 20S proteasome,"15 min preincubation, 37 °C, with: Ac-Nle-Pro-Nle-Asp-AMC substrate",0.28 ± 0.04
C[C@@H]1NC(=O)[C@H](CCC(=O)O)NC(=O)[C@H](C)NC(=O)[C@H](CCCCN)NC(=O)[C@@H]2CSSC[C@H](NC(=O)[C@H](CO)NC(=O)[C@@H]3CCCN3C(=O)[C@H](CCCCN)NC1=O)C(=O)N[C@@H](Cc1ccc(O)cc1)C(=O)N[C@@H](CC(=O)O)C(=O)NCC(=O)N[C@@H](CC(=O)O)C(=O)N[C@@H](CC(=O)O)C(=O)N2,"Lymphocyte function-associated antigen 3, with CD2 (CD58, Homo sapiens, UniProt P19256)","cell adhesion, inhibitor",Jurkat and HFLS-RA,,> 50
CN(C)c1ccc([C@H]2C[C@@]3(C)[C@@H](CC[C@@]3(O)C(F)(F)C(F)(F)F)[C@@H]3CCC4=CC(=O)CCC4=C32)cc1,"PGR (Homo sapiens, UniProt P06401)","reporter gene, antagonist, luciferase",,,0.0005
COCCCN1CCc2c(Cc3ccc(Cl)cc3)[nH]c3c(OC(F)F)ccc(c23)C1=O,"Dual specificity calcium/calmodulin-dependent 3',5'-cyclic nucleotide phosphodiesterase 1B (Homo sapiens, UniProt Q01064)","enzyme activity, inhibitor",,,6.76
Cc1ccc(Cn2cc(CSc3nc(Nc4ccc(C)cc4)c(C#N)c(-c4ccccc4)n3)nn2)cc1,"KDM1A (Homo sapiens, UniProt O60341)","enzyme activity, inhibitor, fluorescence",,,40.4
CN1Cc2c(Cl)cc(Cl)cc2C(c2ccc(S(=O)(=O)NCCOCCOCCOCCNC(=O)C(O)C(O)C(=O)NCCOCCOCCOCCNS(=O)(=O)c3ccc(C4CN(C)Cc5c(Cl)cc(Cl)cc54)cc3)cc2)C1 (centres unmarked),"Sodium/hydrogen exchanger 3 (Homo sapiens, UniProt P48764)","ion flux, inhibitor",,,0.158
CCCn1c(=N)n(CC(O)c2ccc(Br)cc2)c2ccccc21 (centres unmarked),CatSper channel complex,"calcium influx, inhibitor, FLIPR",human sperm,with: 3 µM progesterone,7.7 ± 0.1
CC(C)C[C@@H](NC(=O)[C@@H](Cc1ccccc1)NC(=O)[C@H]1CCCN1C(=O)[C@@H](CCC(N)=O)NC(=O)[C@H](NC(=O)[C@H]1CCCN1C(=O)[C@@H](CCCNC(=N)N)NC(=O)[C@@H](CO)NC(=O)[C@@H](CCC(N)=O)NC(=O)[C@@H](CC(=O)O)NC(=O)[C@H](N)[C@H](C)O)C(C)C)C(=O)N[C@H](CC(N)=O)C(=O)N[C@H](CC(C)C)C(=O)N[C@@H](C(=O)N[C@@H](C(=O)N1CCC[C@@H]1C(=O)N[C@H](CCCNC(=N)N)C(=O)N[C@H](CCCCN)C(=O)N1CCC[C@@H]1C(=O)N[C@H](CCCNC(=N)N)C(=O)N1CCC[C@@H]1C(=O)N1CCC[C@@H]1C(=O)N[C@H](CCCNC(=N)N)C(=O)N[C@H](CCCNC(=N)N)C(=O)N[C@H](CCCNC(=N)N)C(=O)N[C@H](CCC(N)=O)C(=O)N[C@H](CCCNC(=N)N)C(=O)N[C@H](CCCNC(=N)N)C(=O)N[C@H](CCCCN)C(=O)N[C@H](CCCCN)C(=O)N[C@H](CCCNC(=N)N)C(=O)NCC(N)=O)[C@H](C)O)[C@H](C)O,"Mapk1 (Rattus norvegicus, UniProt P63086)","enzyme activity, inhibitor, radiometric",,pH 7.5,206
N=C(N)NCCC[C@@H]1NC(=O)[C@H](Cc2c[nH]c3ccccc23)NC(=O)[C@H](CCCNC(=N)N)NC(=O)[C@H](Cc2c[nH]c3ccccc23)NC(=O)[C@H](CCCNC(=N)N)NC(=O)[C@H](Cc2c[nH]c3ccccc23)NC(=O)[C@H](CCCNC(=N)N)NC(=O)[C@H](Cc2c[nH]c3ccccc23)NC(=O)[C@H](CCCNC(=N)N)NC(=O)[C@H](Cc2c[nH]c3ccccc23)NC(=O)[C@H](CCCNC(=N)N)NC(=O)[C@H](Cc2c[nH]c3ccccc23)NC(=O)[C@H](CCCNC(=N)N)NC(=O)[C@H](Cc2c[nH]c3ccccc23)NC(=O)[C@H](CCCNC(=N)N)NC(=O)[C@H](Cc2c[nH]c3ccccc23)NC(=O)[C@H](CCCNC(=N)N)NC(=O)[C@H](Cc2c[nH]c3ccccc23)NC1=O,"AKT1 (Homo sapiens, UniProt P31749)","enzyme activity, inhibitor",,,< 0.25
O=[N+]([O-])c1ccc(Cn2cc(Cn3cc(CO)nn3)nn2)cc1,"RAC-alpha serine/threonine-protein kinase, PH domain (AKT1, Homo sapiens, UniProt P31749)","PI(3,4,5)P3 binding, competitive SPR",,PH domain 500 nM,3.8 ± 0.098
CCC(NC(=O)C(CC(C)C)NC(=O)NCc1ccccc1)C(=O)C(=O)NCc1cccc(OC)c1 (centres unmarked),"Calpain-1 catalytic subunit (Capn1, Mus musculus, UniProt O35350)","enzyme activity, inhibitor",mouse pons-cerebellum membranes,with: calcium 20 µM,1.94
CC(C)=CCN=C(N)NCCC[C@@H](NC(=O)CCCc1ccc(O)cc1)C(=O)N[C@@H](Cc1ccccc1)C(O)CC(=O)N[C@@H](Cc1ccc(O)cc1)C(=O)O (stereo in doubt),"Cathepsin E (CTSE, Homo sapiens, UniProt P14091)","enzyme activity, inhibitor",,,11
"CC[C@@]1(c2cccc(C(F)(F)F)c2)C2=C(Nc3n[nH]cc31)[C@H](F)C(C)(C)CC2=O (single isomer, unassigned)","GSK3B (Homo sapiens, UniProt P49841)","tau Thr231 phosphorylation, inhibitor, measured: pThr231 over total tau","HEK293 expressing human tau, transfected with GSK3β",,1
O=C(Nc1cccnn1)N1CCC(=Cc2cccc(Oc3ccc(C(F)(F)F)cn3)c2)CC1,"FAAH (Homo sapiens, UniProt O00519)","enzyme activity, inhibitor, fluorescence",,"pH 8, with preincubation",0.0011
O=C(CCCCCCN(Cc1ccccc1)Cc1ccccc1)NO,"HDAC8 (Homo sapiens, UniProt Q9BY41)","enzyme activity, inhibitor, fluorescence",,,4
[Cl][Pd-2]1([Cl])[N+](=P(c2ccccc2)(c2ccccc2)C2C=CC=C2)Cc2cccc[n+]21.[Cl][Pd-2]1([Cl])[N+](=P(c2ccccc2)(c2ccccc2)C2C=CC=C2)Cc2cccc[n+]21.[Fe+2],"PARP1 (Homo sapiens, UniProt P09874)","enzyme activity, inhibitor, absorbance",,,17
"CC1(C)C2CC3C(c4ccccc4)c4c(O)c(C=O)c(O)c(C=O)c4OC3(C)C1C2 (single isomer, unassigned; (+))","Lysophosphatidylserine lipase ABHD12 (Homo sapiens, UniProt Q8N2K0, K373R)","lysophosphatidylserine hydrolysis, inhibitor, LC-MS",HEK293T cell lysate,mutant,> 100
O=C(c1cc2ccccc2[nH]1)N1CCC(O)(c2ccc(Cl)cc2)CC1,CatSper channel complex,"calcium influx, inhibitor, FLIPR",human sperm,with: 3 µM progesterone,> 100
Cn1c(SCC(=O)N2CCC(=C3c4ncccc4CCc4cc(Cl)cc(Br)c43)CC2)nnc1-c1ccccc1,"Protein farnesyltransferase (Homo sapiens, UniProt P49354+P49356)","enzyme activity, inhibitor",,,60
CN(CCOc1ccc(F)cc1)C(=O)c1cccc(S(=O)(=O)N2CCc3ccccc3C2)c1,"SCN5A (Homo sapiens, UniProt Q14524)","ion current, inhibitor, patch clamp",,,29.4
CCC(C)C(=O)N1CCN(C(=O)c2ccc(NC(=O)NC34CC5CC(C)(CC(C)(C5)C3)C4)cc2)CC1 (centres unmarked),EPHX2,"enzyme activity, inhibitor",,,0.00064
CCCC[C@H](NC(=O)CNC(=O)[C@@H]1CCCN1C(=O)CNC(=O)[C@@H]1CCCN1C(=O)CNC(=O)[C@@H]1CCCN1C(=O)CNC(=O)[C@@H]1CCCN1C(=O)CNC(=O)[C@@H]1CCCN1C(=O)CNC(=O)[C@@H]1CCCN1C(=O)[C@H](Cc1c[nH]c2ccccc12)NC(=O)[C@H](CCCNC(=N)N)NC(=O)[C@@H](Cc1ccccc1)NC(=O)[C@H](Cc1c[nH]cn1)NC(=O)[C@H](CCC(=O)O)NC(=O)[C@H](CCCC)NC(=O)[C@H](CO)NC(C)=O)C(=O)NCC(=O)N[C@@H](Cc1c[nH]c2ccccc12)C(=O)N[C@@H](CCCC)C(=O)N[C@@H](CC(=O)O)C(=O)N[C@@H](Cc1ccccc1)C(N)=O,"CCKBR (Homo sapiens, UniProt P32239)","ligand displacement, CCK-8",,,0.046
O=C(Nc1ccc(-c2nc(-c3ccccc3)cs2)cc1)C1CCN(Cc2ccc(F)cc2F)CC1,EPHX2,"enzyme activity, inhibitor, fluorescence",,"pH 7.4, with preincubation",0.0877
C[C@@H]1CN=C2c3ccccc3N=C(NC(=O)c3cccnc3)N21,"PIK3CB (Homo sapiens, UniProt P42338)","enzyme activity, inhibitor, radiometric",,,> 10
O=c1c2ccccc2sn1-c1ccccc1,"HDAC9 (Homo sapiens, UniProt Q9UKV0)","enzyme activity, inhibitor",,,1.7
O=c1c(O[C@@H]2O[C@H](CO[C@@H]3O[C@H](CO)[C@@H](O)[C@H](O)[C@H]3O)[C@@H](O)[C@H](O)[C@H]2O)c(-c2ccc(O)cc2)oc2cc(O)cc(O)c12,"SLC5A2 (Homo sapiens, UniProt P31639)","transporter uptake, inhibitor",,,4.52

# For quick reference, copied from above:
Compound,target,assay,system,conditions,IC50 [µM]
C=C(NC(=O)C(=C)NC(=O)c1csc(C2=NC3c4csc(n4)C4NC(=O)c5csc(n5)C(C(C)(O)C(C)O)NC(=O)C5CSC(=N5)C(=CC)NC(=O)C(C)NC(=O)c5csc(n5)C3(CC2)NC(=O)C(C)NC(=O)C(=C)NC(=O)C(C)NC(=O)C(C(C)CC)NC2C=Cc3c(C(C)O)cc(nc3C2O)C(=O)OC4C)n1)C(N)=O (centres unmarked),"PSMB6 (Homo sapiens, UniProt P28072)","caspase-like activity, inhibitor",purified 20S proteasome,"15 min preincubation, 37 °C, with: Ac-Nle-Pro-Nle-Asp-AMC substrate",0.28 ± 0.04
C[C@@H]1NC(=O)[C@H](CCC(=O)O)NC(=O)[C@H](C)NC(=O)[C@H](CCCCN)NC(=O)[C@@H]2CSSC[C@H](NC(=O)[C@H](CO)NC(=O)[C@@H]3CCCN3C(=O)[C@H](CCCCN)NC1=O)C(=O)N[C@@H](Cc1ccc(O)cc1)C(=O)N[C@@H](CC(=O)O)C(=O)NCC(=O)N[C@@H](CC(=O)O)C(=O)N[C@@H](CC(=O)O)C(=O)N2,"Lymphocyte function-associated antigen 3, with CD2 (CD58, Homo sapiens, UniProt P19256)","cell adhesion, inhibitor",Jurkat and HFLS-RA,,> 50
CN(C)c1ccc([C@H]2C[C@@]3(C)[C@@H](CC[C@@]3(O)C(F)(F)C(F)(F)F)[C@@H]3CCC4=CC(=O)CCC4=C32)cc1,"PGR (Homo sapiens, UniProt P06401)","reporter gene, antagonist, luciferase",,,0.0005
COCCCN1CCc2c(Cc3ccc(Cl)cc3)[nH]c3c(OC(F)F)ccc(c23)C1=O,"Dual specificity calcium/calmodulin-dependent 3',5'-cyclic nucleotide phosphodiesterase 1B (Homo sapiens, UniProt Q01064)","enzyme activity, inhibitor",,,6.76
